{"data": "Measurements pooled from the literature", "target": "Cannabinoid receptor 2 (CNR2, Homo sapiens, UniProt P34972)", "note": "Numbers after ± are the reported error.", "sequence of UniProt P34972 (whole entry, looked up)": "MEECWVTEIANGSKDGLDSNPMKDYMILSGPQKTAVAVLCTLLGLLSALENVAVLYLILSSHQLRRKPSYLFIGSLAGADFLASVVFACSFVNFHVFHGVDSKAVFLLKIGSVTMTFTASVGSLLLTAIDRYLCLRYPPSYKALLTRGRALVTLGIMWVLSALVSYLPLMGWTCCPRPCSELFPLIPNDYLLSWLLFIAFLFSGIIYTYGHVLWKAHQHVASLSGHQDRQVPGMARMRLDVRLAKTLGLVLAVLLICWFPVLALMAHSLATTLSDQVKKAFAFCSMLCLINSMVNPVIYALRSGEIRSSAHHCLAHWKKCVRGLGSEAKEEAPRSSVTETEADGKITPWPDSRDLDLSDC"}
{"Compound": "CC1(Cc2ccccc2)COc2cc(C(=O)N3CCOCC3)ccc21 (stereo not shown)", "test": "GTPγS binding, agonist, radiometric", "measurement": "Emax", "value": "93%"}
{"Compound": "CC(C)(NC(=O)c1nn(Cc2ccc(F)cc2F)c2ccccc12)c1cccc(C(N)=O)c1", "test": "calcium mobilization, agonist", "system": "CHO-K1 expressing Gαq16", "how to read": "baseline: CP55,940 maximum", "measurement": "Emax", "value": "~17%"}
{"Compound": "CC1(C)Oc2cc([C@]34CC5CC(C[C@@](N=C=S)(C5)C3)C4)cc(O)c2[C@@H]2C[C@H](O)CC[C@H]21", "test": "radioligand binding Bmax reduction", "system": "HEK293 membranes", "conditions": "10-fold Ki, added: [3H]CP-55,940", "how to read": "baseline: untreated", "measurement": "covalent labeling", "value": "25%"}
{"Compound": "C[C@H]1CC[C@@H](NC(=O)c2cc3cc(-c4ccco4)cnc3n(Cc3ccc(F)cc3)c2=O)CC1", "test": "[3H]CP-55,940 displacement", "how to read": "baseline: cis over trans isomer", "measurement": "affinity ratio", "value": "349 fold"}
{"Compound": "CC1(Cc2ccccc2)COc2cc(C(=O)NC3CCCCC3)ccc21 (stereo not shown)", "test": "GTPγS binding, agonist, radiometric", "measurement": "Emax", "value": "54.3%"}
{"Compound": "CC1(C)Oc2cc([C@]34CC5CC(C[C@@](N=[N+]=[N-])(C5)C3)C4)cc(O)c2[C@@H]2C[C@H](O)CC[C@H]21", "test": "radioligand binding Bmax reduction", "system": "HEK293 membranes", "conditions": "10-fold Ki, added: [3H]CP-55,940", "how to read": "baseline: untreated", "measurement": "covalent labeling", "value": "26%"}
{"Compound": "CC(C)(NC(=O)c1nn(Cc2ccc(F)cc2)c2ccccc12)C1CCN(C(N)=O)CC1", "test": "calcium mobilization, agonist", "system": "CHO-K1 expressing Gαq16", "how to read": "baseline: CP55,940 maximum", "measurement": "Emax", "value": "59 ± 2%"}
{"Compound": "CC1(Cc2ccccc2)COc2cc(C(=O)NCC3CCOCC3)ccc21 (stereo not shown)", "test": "GTPγS binding, agonist, radiometric", "measurement": "Emax", "value": "49%"}
{"Compound": "NC(=O)N1CCC[C@@H](CNC(=O)c2nn(Cc3ccc(F)cc3)c3ccccc23)C1", "test": "calcium mobilization, agonist", "system": "CHO-K1 expressing Gαq16", "how to read": "baseline: CP55,940 maximum", "measurement": "Emax", "value": "29 ± 10%"}
{"Compound": "C[C@H]1CC[C@@H](NC(=O)c2cc3cc(Br)cnc3n(Cc3ccc(F)cc3)c2=O)CC1", "test": "[3H]CP-55,940 displacement", "how to read": "baseline: cis over trans isomer", "measurement": "affinity ratio", "value": "9 fold"}
{"note": "Excerpt of the above:"}
{"Compound": "CC1(Cc2ccccc2)COc2cc(C(=O)NCC3CCOCC3)ccc21 (stereo not shown)", "test": "GTPγS binding, agonist, radiometric", "measurement": "Emax", "value": "49%"}
